# Experimental data from different studies.
# Each line is one published result; not all experiments were run side by side. Values joined by “and” are separate records of one study, mostly repeats; a detail may differ. ± gives the spread as reported.
# ALDH2: Aldehyde dehydrogenase, mitochondrial (ALDH2, Homo sapiens, UniProt P05091)
# Chain of UniProt P05091 (whole entry, looked up): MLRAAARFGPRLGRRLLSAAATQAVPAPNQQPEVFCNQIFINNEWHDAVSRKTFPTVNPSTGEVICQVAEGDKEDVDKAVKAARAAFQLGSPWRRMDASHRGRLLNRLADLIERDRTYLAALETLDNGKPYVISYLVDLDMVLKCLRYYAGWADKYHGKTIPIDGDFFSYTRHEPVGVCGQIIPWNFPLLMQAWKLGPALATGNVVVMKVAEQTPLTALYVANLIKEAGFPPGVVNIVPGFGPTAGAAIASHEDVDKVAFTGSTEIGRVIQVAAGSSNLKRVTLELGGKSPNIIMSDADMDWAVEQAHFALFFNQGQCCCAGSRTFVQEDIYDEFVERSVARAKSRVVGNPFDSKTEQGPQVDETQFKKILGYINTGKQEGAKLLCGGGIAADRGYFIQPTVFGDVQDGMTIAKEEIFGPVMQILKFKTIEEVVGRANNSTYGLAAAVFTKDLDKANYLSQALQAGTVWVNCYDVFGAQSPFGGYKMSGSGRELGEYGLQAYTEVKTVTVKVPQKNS
# 7-alpha-hydroxycholest-4-en-3-one 12-alpha-hydroxylase: 7-alpha-hydroxycholest-4-en-3-one 12-alpha-hydroxylase (Homo sapiens, UniProt Q9UNU6)
# Chain of UniProt Q9UNU6 (whole entry, looked up): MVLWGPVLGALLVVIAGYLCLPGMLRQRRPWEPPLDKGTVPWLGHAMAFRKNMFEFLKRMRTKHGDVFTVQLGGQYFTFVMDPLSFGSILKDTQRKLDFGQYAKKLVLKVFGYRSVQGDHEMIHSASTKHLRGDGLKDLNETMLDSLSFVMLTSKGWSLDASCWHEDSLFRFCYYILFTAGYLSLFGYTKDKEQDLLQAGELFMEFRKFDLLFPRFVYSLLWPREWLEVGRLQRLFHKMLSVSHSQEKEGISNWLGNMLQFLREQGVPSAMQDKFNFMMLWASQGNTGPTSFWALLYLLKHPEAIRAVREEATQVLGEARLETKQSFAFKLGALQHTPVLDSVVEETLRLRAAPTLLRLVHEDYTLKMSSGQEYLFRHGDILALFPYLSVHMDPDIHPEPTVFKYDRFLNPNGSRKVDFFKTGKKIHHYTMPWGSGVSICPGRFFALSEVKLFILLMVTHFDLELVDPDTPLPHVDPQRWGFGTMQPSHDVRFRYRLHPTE
# Chain of UniProt O00444 (whole entry, looked up): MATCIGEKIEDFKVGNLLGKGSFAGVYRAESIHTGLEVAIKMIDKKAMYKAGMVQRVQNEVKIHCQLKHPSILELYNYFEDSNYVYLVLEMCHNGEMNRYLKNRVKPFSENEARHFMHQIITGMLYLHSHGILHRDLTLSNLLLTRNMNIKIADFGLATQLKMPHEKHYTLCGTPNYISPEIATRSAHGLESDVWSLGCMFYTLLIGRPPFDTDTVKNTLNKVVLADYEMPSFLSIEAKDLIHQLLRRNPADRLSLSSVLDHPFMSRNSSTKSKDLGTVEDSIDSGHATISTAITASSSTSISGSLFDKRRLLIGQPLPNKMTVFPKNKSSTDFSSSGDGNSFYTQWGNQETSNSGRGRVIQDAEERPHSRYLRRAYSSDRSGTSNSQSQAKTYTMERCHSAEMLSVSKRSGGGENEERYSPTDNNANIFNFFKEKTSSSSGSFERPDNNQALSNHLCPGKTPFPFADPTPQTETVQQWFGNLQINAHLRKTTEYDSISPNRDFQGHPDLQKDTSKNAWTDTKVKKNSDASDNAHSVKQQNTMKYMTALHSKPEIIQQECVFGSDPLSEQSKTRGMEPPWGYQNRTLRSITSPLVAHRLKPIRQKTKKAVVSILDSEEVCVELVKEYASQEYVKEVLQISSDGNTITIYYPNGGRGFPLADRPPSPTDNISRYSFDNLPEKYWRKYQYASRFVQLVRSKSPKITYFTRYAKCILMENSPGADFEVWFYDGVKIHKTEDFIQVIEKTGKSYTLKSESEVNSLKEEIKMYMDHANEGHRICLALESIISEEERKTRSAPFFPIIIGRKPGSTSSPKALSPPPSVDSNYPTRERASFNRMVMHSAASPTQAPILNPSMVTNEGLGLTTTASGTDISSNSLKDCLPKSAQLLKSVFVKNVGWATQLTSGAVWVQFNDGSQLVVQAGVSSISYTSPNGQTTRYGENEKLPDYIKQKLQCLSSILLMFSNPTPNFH
# Chain of UniProt P35222 (141-305, looked up): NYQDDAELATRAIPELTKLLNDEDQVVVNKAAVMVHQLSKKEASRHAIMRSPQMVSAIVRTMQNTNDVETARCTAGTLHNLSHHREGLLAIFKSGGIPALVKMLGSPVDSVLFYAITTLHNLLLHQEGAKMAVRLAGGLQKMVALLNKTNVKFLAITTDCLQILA
# Chain of UniProt Q06124 (whole entry, looked up): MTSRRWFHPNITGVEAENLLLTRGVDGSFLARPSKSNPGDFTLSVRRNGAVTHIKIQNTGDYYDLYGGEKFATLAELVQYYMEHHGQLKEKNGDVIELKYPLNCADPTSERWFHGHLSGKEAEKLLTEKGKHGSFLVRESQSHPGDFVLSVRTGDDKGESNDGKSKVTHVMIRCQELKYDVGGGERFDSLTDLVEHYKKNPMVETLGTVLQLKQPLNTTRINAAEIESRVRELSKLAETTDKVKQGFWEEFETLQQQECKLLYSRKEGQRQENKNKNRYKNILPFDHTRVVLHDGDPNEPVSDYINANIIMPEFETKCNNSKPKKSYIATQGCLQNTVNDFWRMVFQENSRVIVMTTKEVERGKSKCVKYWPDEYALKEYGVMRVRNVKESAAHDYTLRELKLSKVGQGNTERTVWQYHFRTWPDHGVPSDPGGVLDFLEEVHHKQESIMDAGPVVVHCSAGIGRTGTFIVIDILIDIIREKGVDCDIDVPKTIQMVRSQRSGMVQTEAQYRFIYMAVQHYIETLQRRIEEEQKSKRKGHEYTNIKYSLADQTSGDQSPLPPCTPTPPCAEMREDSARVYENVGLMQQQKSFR
# Chain of UniProt P16442 (whole entry, unmodified, looked up): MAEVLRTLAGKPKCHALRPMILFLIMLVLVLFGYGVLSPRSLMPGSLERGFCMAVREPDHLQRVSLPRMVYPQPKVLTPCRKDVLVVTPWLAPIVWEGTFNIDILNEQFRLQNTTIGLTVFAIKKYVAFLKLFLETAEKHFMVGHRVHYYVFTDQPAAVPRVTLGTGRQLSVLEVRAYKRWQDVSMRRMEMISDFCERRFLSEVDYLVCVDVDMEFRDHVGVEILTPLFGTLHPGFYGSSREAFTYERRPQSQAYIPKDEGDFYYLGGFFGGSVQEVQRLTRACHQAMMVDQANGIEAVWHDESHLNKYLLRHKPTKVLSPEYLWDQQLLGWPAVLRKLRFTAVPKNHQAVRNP
# Chain of UniProt P31641 (whole entry, unmodified, looked up): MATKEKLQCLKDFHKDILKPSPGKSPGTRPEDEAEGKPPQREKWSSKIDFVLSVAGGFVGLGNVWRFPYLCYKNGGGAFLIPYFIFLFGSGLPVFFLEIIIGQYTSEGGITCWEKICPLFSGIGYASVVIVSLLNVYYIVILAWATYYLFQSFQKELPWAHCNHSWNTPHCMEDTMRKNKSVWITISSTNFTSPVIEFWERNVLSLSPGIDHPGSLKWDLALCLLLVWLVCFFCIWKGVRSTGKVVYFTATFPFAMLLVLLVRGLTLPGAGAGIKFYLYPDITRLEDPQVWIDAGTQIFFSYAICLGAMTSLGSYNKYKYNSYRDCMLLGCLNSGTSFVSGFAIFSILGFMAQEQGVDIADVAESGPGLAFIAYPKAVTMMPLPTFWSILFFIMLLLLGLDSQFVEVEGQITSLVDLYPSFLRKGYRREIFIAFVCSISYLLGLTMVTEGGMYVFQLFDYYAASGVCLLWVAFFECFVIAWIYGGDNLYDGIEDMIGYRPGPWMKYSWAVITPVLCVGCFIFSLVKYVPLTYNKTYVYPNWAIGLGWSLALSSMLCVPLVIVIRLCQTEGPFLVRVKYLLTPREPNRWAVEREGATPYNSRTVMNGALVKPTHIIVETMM
# Chain of UniProt A0A0H2URD6 (whole entry, looked up): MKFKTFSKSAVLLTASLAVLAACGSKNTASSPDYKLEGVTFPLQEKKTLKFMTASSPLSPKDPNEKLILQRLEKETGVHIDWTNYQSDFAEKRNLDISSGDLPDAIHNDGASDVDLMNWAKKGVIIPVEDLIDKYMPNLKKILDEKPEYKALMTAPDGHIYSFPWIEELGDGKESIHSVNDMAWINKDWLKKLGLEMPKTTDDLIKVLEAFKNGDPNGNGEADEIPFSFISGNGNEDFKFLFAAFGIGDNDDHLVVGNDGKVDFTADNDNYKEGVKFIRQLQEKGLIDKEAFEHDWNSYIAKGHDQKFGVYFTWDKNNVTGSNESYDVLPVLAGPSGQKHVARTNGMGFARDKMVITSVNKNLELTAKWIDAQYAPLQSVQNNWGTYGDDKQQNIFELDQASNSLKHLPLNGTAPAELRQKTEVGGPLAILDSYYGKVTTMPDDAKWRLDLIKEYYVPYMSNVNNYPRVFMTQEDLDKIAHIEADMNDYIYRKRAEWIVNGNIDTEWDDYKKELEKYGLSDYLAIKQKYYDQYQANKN
# Chain of UniProt P61823 (whole entry, looked up): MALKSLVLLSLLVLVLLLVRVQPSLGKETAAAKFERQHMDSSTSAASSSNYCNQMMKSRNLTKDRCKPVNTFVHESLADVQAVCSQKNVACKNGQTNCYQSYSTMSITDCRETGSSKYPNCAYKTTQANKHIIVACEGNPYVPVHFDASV
Structure (SMILES),target,assay,test system,setting,Kd
NC(=O)c1ccc[n+]([C@@H]2O[C@H](COP(=O)([O-])OP(=O)(O)OC[C@H]3O[C@@H](n4cnc5c(N)ncnc54)[C@H](O)[C@@H]3O)[C@@H](O)[C@H]2O)c1,"IMPDH2 (Homo sapiens, UniProt P12268)","binding to E-IMP complex, pre-steady-state kinetics",,,80 µM
CC(=O)Nc1ccc(C(=O)Nc2ccccc2N)cc1,ALDH2,"inhibitor, competition pulldown",SW620 and MV4-11 lysate,1 h,> 30.2 µM
O=c1ccn([C@@H]2O[C@H](COP(=O)(O)OP(=O)(O)O)[C@@H](O)[C@H]2O)c(=O)[nH]1,"ABO (Homo sapiens, UniProt P16442, G235S/G268A/L266M/R176G/W181M)",methyl-TROSY NMR titration lineshape analysis,,apo mutant enzyme,890 ± 10 µM
O=C(O)CC(O)(CC(=O)O)C(=O)O,"uncharacterized protein (Pelagibacter ubique, UniProt Q4FLC8)","binding, competition isothermal titration calorimetry",Candidatus Pelagibacter ubique,"together with: cis-aconitate 1 mM competitor, MgSO4 53 mM",0.000693 µM and 0.000698 µM
C[C@H](O)C(=O)O,V20H-R359H zinc sensor protein,"binding, fluorescence lifetime",,together with: 100 µM Zn2+,553 ± 310 µM
O=C(/C=C/c1ccc(CN(CCO)CCc2c[nH]c3ccccc23)cc1)NO,ALDH2,"inhibitor, competition pulldown",SW620 and MV4-11 lysate,1 h,> 30.2 µM
NCCCC(=O)O,"SLC6A6 (Homo sapiens, UniProt P31641, L306A)",microscale thermophoresis,,L306A mutant,740 ± 1070 µM
C/C=C1\NC(=O)[C@H]2CSSCC/C=C/[C@H](CC(=O)N[C@H](C(C)C)C(=O)N2)OC(=O)[C@H](C(C)C)NC1=O,ALDH2,"inhibitor, competition pulldown",SW620 and MV4-11 lysate,1 h,> 30.2 µM
Clc1ccc(COC(Cn2ccnc2)c2ccc(Cl)cc2Cl)cc1 (centres unmarked),7-alpha-hydroxycholest-4-en-3-one 12-alpha-hydroxylase,"binding, Soret peak shift titration",,20% glycerol,0.0574 µM
CC[C@H](C)[C@H](NC(=O)[C@H](CC(C)C)NC(=O)[C@H](Cc1ccc(OP(=O)(O)O)cc1)NC(=O)[C@H](CCC(=O)O)NC(=O)[C@H](CC(=O)O)NC(=O)[C@H](C)NC(=O)[C@H](CC(=O)O)NC(=O)[C@@H](NC(=O)[C@@H](NC(=O)[C@H](CC(=O)O)NC(=O)[C@H](CC(=O)O)NC(=O)[C@H](CCSC)NC(=O)c1ccc2c(c1)C(=O)OC21c2ccc(N(C)C)cc2Oc2cc(N(C)C)ccc21)C(C)C)C(C)C)C(=O)N1CCC[C@H]1C(=O)N[C@@H](CCC(N)=O)C(=O)N[C@@H](CCC(N)=O)C(=O)NCC(=O)N[C@@H](Cc1ccccc1)C(=O)N[C@@H](CC(=O)O)C(=O)O,"Tyrosine-protein phosphatase non-receptor type 11, SH2 domains (PTPN11, Homo sapiens, UniProt Q06124)",binding,,,0.379 µM
OC[C@H]1O[C@@](CO)(O[C@H]2O[C@H](CO)[C@@H](O)[C@H](O)[C@H]2O)[C@@H](O)[C@@H]1O,"Fructooligosaccharide ABC transporter substrate-binding protein FusA (fusA, Streptococcus pneumoniae serotype 4, UniProt A0A0H2URD6)","binder, isothermal titration calorimetry",,"25 °C, wild type",> 300 µM
Cc1cc(Nc2cc3ncccc3c(N[C@@H]3C[C@H]4CC[C@@H](C3)N4CCC#N)n2)n[nH]1,"PLK4 (Homo sapiens, UniProt O00444)","binding, KINOMEscan",,,0.023 µM
O=C(/C=C/c1cccc(S(=O)(=O)Nc2ccccc2)c1)NO,ALDH2,"inhibitor, competition pulldown",SW620 and MV4-11 lysate,1 h,> 30.2 µM
Cc1ccnc([18F])c1-c1cccc(N2C[C@H](N3CCN(C(=O)c4nccs4)CC3)CC2=O)c1,"Monoglyceride lipase (Macaca mulatta, UniProt H9ESL3)",PET Scatchard analysis,"rhesus monkey, cerebellum",,0.00125 µM
COc1ccc(C)cc1CN1CCC(c2cc3ncccc3cn2)CC1,"Catenin beta-1, residues 141-305 (CTNNB1, Homo sapiens, UniProt P35222)","binding, isothermal titration calorimetry",,25 °C,1.63 µM
Fc1ccc(NC(=S)NCCCn2ccnc2)c(F)c1,7-alpha-hydroxycholest-4-en-3-one 12-alpha-hydroxylase,binding,,"20 min, pH 7.4",216 µM
Nc1ccn([C@@H]2O[C@H](COP(=O)(O)OP(=O)(O)O)[C@@H](O)[C@H]2O)c(=O)n1,"RNASE1 (Bos taurus, UniProt P61823)","binding, native mass spectrometry",solution,"single-point method, together with: protein 0 to 0.2 µM",4.1 ± 0.2 µM

# Repeated from above:
Structure (SMILES),target,assay,test system,setting,Kd
C[C@H](O)C(=O)O,V20H-R359H zinc sensor protein,"binding, fluorescence lifetime",,together with: 100 µM Zn2+,553 ± 310 µM
O=C(/C=C/c1ccc(CN(CCO)CCc2c[nH]c3ccccc23)cc1)NO,ALDH2,"inhibitor, competition pulldown",SW620 and MV4-11 lysate,1 h,> 30.2 µM
NCCCC(=O)O,"SLC6A6 (Homo sapiens, UniProt P31641, L306A)",microscale thermophoresis,,L306A mutant,740 ± 1070 µM
